{"data": "Published values gathered from unrelated publications", "note": "Lines come from different studies, so protocols differ. ± marks the error that the study gave."}
{"SMILES": "Cc1cc(C)c(CNC(=O)c2cc(Cl)c3c(c2C)O[C@@](C)([C@H]2CC[C@H](N(C)C)CC2)O3)c(=O)[nH]1", "assay": "mean", "system": "healthy male humans, plasma", "conditions": "oral, 25 mg, day 1, alone, fluconazole group", "endpoint": "AUC(0-t)", "value": "641 ng·h/mL"}
{"SMILES": "CN(CC#N)C(=O)C[C@H](Nc1nc2ccccc2[nH]1)c1cccc(C(F)(F)F)c1", "system": "human", "conditions": "intravenous infusion, 6 mg/kg, 1 mg/mL formulation", "endpoint": "AUC(0-t)", "value": "25500 ± 5100 ng·h/mL"}
{"SMILES": "Cc1cc(Nc2ncnc3ccc(NC4=NC(C)(CO)CO4)cc23)ccc1Oc1ccn2ncnc2c1 (stereo not drawn)", "system": "human, plasma", "conditions": "tucatinib, day 10, together with: rifampin once daily", "endpoint": "AUC(0-t) (geometric mean)", "value": "311 ng·h/mL"}
{"SMILES": "CCCCC1=NC2(CCCC2)C(=O)N1Cc1ccc(-c2ccccc2S(=O)(=O)Nc2noc(C)c2C)c(COCC)c1", "system": "healthy humans, plasma", "conditions": "oral, 200 mg", "how to read": "reference: fed over fasted", "endpoint": "AUC(0-t) ratio", "value": 0.87}
{"SMILES": "NC1(C(=O)N[C@@H](CCO)c2ccc(Cl)cc2)CCN(c2nc[nH]c3nccc2-3)CC1", "system": "human patients, plasma", "conditions": "dose not given, cohort 160/480, cycle 2, geometric mean", "endpoint": "AUC(0-t)", "value": "2340 ng·h/mL"}
{"SMILES": "Cl.[2H]C([2H])([2H])CC(=O)c1cnc(NC(=O)C2CC2)cc1Nc1cccc(-c2ncn(C([2H])([2H])[2H])n2)c1OC", "system": "human, fed, plasma", "conditions": "oral, 25 mg, single dose, liquid formulation", "endpoint": "AUC(0-t)", "value": "1800 ng·h/mL"}
{"SMILES": "CO[C@H]1C[C@@H]2CC[C@@H](C)[C@@](O)(O2)C(=O)C(=O)N2CCCC[C@H]2C(=O)O[C@H]([C@H](C)C[C@@H]2CC[C@@H](OC(=O)NCCOCCOCCOCCOCCOCCOCCOCCOCCC(=O)N3CCc4cc(Cn5nc(-c6ccc7oc(N)nc7c6)c6c(N)ncnc65)ccc4C3)[C@H](OC)C2)C[C@@H](O)[C@H](C)/C=C(\\C)[C@@H](O)[C@@H](OC)C(=O)[C@H](C)C[C@H](C)/C=C/C=C/C=C/1C", "system": "human, plasma", "conditions": "intravenous, 1.6 mg, cycle 1 day 1, arithmetic mean", "endpoint": "AUC(0-t)", "value": "52.9 ng·h/mL"}
{"SMILES": "COc1ncc(-c2nc3c(n2C(C)C)[C@H](c2ccc(Cl)cc2)N(c2cc(Cl)cn(C)c2=O)C3=O)c(OC)n1", "system": "human patients, plasma", "conditions": "oral, 20 mg, 0-24 h, low-dose arm, cycle 1 day 1", "endpoint": "AUC(0-t) geometric mean", "value": "1960 ng·h/mL"}
{"SMILES": "C=CC(=O)N(C)CCOc1c(N)ncnc1-c1cc(F)cc(NC(=O)c2ccc(C3CC3)cc2F)c1C", "system": "human, whole blood", "conditions": "oral, 400 mg, single ascending dose", "endpoint": "AUC(0-t)", "value": "1060 ng·h/mL"}
{"SMILES": "NC[C@@]1(CC(=O)O)[C@@H]2CC[C@H]3C[C@@H]2[C@@H]1C3", "system": "human, normal renal function, plasma", "conditions": "dose not given, geometric mean", "endpoint": "AUC(0-t) unbound", "value": "1550 ng·h/mL"}
{"SMILES": "CC(C)=CCC/C(C)=C/CC/C(C)=C/CC[C@@](C)(O)CCC1=C(C)C(=O)C(C)=C(C)C1=O", "system": "healthy human, plasma", "conditions": "oral, 400 mg, together with: itraconazole 200 mg", "endpoint": "AUC(0-t) geometric mean", "value": "10800 ng·h/mL"}
{"SMILES": "C=CCn1c(=O)c2cnc(Nc3ccc(N4CCN(C)CC4)cc3)nc2n1-c1cccc(C(C)(C)O)n1", "system": "human", "conditions": "oral, 175 mg twice daily, cycle 1 day 17, together with: durvalumab 1500 mg IV", "how to read": "geometric mean", "endpoint": "AUC(0-t)", "value": "6.67 µM·h"}
{"note": "Some of these lines once more:"}
{"SMILES": "CN(CC#N)C(=O)C[C@H](Nc1nc2ccccc2[nH]1)c1cccc(C(F)(F)F)c1", "system": "human", "conditions": "intravenous infusion, 6 mg/kg, 1 mg/mL formulation", "endpoint": "AUC(0-t)", "value": "25500 ± 5100 ng·h/mL"}
